Measured values pooled from the literature.
Every numbered part comes from another study and shows a few of its results, in no order. Several values in a cell are separate wells, animals, samples, runs or records.
UniProt Q9UM73, sequence (whole entry, unmodified, looked up): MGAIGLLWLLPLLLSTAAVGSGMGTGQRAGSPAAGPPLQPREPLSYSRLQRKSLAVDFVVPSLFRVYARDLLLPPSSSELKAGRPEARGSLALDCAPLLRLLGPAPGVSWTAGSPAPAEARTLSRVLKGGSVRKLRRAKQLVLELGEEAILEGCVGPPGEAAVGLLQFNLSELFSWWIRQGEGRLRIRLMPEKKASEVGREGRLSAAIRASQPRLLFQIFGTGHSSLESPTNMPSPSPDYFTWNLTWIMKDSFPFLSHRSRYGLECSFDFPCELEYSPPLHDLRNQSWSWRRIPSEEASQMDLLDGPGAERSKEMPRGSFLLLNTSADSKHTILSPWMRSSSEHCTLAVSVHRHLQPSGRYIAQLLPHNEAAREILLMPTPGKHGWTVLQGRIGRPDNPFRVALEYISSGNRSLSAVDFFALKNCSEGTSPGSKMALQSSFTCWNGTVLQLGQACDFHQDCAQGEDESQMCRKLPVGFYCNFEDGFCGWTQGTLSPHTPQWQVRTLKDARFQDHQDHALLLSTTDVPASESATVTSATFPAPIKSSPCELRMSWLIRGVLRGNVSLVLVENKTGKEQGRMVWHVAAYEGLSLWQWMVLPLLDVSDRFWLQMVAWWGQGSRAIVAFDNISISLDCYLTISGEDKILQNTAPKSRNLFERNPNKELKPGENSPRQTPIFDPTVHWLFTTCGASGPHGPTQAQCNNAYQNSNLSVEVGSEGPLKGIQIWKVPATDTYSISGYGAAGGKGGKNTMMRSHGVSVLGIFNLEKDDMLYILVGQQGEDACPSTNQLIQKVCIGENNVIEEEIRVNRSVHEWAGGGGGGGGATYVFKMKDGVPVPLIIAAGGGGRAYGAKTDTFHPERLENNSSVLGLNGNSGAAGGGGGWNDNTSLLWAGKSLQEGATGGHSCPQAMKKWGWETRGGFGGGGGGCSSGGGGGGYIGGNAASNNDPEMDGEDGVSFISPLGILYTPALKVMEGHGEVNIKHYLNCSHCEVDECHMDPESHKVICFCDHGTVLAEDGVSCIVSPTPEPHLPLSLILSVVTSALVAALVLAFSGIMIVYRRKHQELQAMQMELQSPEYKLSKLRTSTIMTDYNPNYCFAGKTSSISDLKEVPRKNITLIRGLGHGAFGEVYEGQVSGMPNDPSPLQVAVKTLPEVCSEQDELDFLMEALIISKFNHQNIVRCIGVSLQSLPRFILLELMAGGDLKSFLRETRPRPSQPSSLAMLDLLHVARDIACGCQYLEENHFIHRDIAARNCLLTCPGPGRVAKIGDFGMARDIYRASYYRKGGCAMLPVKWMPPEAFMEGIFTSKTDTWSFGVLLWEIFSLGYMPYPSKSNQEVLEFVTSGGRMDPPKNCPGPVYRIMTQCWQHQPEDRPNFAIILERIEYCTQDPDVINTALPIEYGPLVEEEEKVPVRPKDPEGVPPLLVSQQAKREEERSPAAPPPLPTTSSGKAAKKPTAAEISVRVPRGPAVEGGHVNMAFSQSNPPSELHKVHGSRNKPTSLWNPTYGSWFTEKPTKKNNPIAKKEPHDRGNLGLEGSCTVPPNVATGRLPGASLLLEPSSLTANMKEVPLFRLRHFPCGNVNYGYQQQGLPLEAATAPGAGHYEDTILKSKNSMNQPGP
UniProt P07949, sequence (whole entry, unmodified, looked up): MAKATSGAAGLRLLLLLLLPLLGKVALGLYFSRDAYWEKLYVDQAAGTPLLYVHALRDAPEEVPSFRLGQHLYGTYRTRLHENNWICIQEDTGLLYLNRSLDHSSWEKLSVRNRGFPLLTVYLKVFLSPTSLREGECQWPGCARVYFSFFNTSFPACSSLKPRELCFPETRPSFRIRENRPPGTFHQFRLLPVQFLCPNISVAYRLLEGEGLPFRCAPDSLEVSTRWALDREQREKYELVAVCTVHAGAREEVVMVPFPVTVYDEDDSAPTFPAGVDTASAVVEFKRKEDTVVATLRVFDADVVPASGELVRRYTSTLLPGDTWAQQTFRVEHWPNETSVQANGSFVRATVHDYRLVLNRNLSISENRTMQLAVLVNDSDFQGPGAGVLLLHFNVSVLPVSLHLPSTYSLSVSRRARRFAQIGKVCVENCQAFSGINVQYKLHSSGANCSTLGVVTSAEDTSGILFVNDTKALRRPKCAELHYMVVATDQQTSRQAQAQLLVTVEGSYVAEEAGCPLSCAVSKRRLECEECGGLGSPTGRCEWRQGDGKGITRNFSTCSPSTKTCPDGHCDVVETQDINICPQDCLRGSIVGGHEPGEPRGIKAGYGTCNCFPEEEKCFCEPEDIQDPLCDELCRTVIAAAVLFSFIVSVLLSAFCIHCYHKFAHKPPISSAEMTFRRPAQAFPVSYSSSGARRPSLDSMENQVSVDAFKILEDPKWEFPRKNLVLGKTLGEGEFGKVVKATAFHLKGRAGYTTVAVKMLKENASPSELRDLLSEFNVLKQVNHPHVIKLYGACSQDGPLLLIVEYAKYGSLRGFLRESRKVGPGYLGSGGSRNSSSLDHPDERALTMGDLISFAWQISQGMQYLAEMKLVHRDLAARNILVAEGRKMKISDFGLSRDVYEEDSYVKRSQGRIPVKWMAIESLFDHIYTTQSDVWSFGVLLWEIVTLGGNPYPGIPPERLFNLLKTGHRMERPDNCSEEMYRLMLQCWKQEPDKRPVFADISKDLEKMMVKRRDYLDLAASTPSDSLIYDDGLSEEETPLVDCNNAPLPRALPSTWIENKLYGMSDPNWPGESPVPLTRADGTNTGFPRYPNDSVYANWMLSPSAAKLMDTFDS
UniProt Q9UPZ9, sequence (whole entry, looked up): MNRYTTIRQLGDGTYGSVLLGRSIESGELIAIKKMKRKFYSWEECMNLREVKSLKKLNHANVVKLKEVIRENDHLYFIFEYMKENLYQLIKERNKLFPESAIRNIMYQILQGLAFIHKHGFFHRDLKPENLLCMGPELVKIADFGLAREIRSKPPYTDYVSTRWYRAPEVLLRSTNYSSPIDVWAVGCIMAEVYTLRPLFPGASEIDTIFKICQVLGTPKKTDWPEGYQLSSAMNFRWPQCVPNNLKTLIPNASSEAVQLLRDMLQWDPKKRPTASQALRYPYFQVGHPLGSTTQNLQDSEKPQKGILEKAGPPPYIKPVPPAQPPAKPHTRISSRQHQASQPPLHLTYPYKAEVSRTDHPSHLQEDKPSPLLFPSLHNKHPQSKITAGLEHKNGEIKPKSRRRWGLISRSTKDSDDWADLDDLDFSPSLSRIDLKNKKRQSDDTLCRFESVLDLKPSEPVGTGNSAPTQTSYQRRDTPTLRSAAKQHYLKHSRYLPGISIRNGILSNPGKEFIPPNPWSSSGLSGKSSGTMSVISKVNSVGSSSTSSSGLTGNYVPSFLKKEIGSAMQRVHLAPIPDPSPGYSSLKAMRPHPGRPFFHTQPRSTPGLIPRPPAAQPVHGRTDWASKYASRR
UniProt Q9HC98, sequence (whole entry, looked up): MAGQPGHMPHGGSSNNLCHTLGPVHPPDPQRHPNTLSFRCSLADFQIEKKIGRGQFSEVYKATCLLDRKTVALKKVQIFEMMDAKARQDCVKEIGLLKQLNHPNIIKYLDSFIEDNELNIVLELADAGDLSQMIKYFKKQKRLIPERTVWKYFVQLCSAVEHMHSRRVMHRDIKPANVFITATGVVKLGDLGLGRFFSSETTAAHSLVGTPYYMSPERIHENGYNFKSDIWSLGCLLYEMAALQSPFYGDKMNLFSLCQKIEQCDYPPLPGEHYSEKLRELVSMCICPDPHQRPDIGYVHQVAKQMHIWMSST
UniProt Q13177, sequence (whole entry, looked up): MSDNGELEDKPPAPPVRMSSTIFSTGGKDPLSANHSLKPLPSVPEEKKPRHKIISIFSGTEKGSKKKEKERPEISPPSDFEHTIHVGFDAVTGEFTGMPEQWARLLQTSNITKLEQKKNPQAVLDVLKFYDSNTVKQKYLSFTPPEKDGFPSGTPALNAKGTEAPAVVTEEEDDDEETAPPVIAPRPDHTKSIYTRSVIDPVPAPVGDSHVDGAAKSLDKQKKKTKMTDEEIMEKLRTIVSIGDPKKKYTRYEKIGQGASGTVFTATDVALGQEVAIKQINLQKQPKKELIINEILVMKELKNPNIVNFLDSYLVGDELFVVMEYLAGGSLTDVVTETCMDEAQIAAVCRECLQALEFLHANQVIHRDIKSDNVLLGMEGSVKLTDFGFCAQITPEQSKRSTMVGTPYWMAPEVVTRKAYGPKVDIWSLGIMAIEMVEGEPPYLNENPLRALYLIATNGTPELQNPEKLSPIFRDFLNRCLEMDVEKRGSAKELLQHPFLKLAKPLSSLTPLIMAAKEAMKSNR

Set 1
Target: Calcium/calmodulin-dependent protein kinase type II subunit alpha (CAMK2A, Homo sapiens, UniProt Q9UQM7)
UniProt Q9UQM7, sequence (whole entry, looked up): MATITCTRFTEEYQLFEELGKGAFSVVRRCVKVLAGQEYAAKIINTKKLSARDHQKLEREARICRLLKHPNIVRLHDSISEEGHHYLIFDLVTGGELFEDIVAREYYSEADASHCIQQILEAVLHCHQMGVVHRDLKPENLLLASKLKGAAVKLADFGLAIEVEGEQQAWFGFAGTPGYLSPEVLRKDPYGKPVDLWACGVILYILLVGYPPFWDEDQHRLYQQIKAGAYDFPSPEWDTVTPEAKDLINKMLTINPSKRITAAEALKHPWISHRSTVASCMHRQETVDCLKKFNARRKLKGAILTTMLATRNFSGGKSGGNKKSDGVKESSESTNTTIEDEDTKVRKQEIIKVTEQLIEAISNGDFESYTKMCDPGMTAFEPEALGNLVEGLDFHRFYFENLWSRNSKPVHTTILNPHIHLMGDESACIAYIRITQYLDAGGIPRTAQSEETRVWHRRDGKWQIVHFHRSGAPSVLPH
Observed: enzyme activity
Action: inhibitor
Concentration: 10 µM
For Cc1ccc(-c2ccc(C)cn2)nc1, the inhibition was -1%.
With CC(C)=CCC/C(C)=C/Cc1cc(-c2coc3cc(O)ccc3c2=O)ccc1O the inhibition was 4%.
For CCNC(=NCCCC[C@H](NC(=O)[C@H](CC(C)C)NC(=O)[C@@H](CCCCN=C(NCC)NCC)NC(=O)[C@H](Cc1ccc(O)cc1)NC(=O)[C@H](CO)NC(=O)[C@@H](Cc1cccnc1)NC(=O)[C@@H](Cc1ccc(Cl)cc1)NC(=O)[C@@H](Cc1ccc2ccccc2c1)NC(C)=O)C(=O)N1CCC[C@H]1C(=O)N[C@H](C)C(N)=O)NCC, the inhibition was -14%.
With CN1CC(O)C2=C/C(=N/NC(N)=O)C(=O)C=C21 (stereo not drawn) the inhibition was 2%.
Cc1c(C)c2c(c(C)c1O)CCC(C)(COc1ccc(CC3SC(=O)NC3=O)cc1)O2 (stereo not drawn) gave an inhibition of 7%.
CC(=O)CCc1ccc(O)cc1 gave an inhibition of -4%.
O=c1cc(-c2ccccc2)c2cc(O)c(O)cc2o1 gave an inhibition of -62%.
With CS(=O)(=O)n1cc2c(n1)CN([C@H]1CO[C@H](c3cc(F)ccc3F)[C@@H](N)C1)C2 the inhibition was -1%.
For NCCCC(N)(C(=O)O)C(F)F (stereo not drawn), the inhibition was -13%.
OC[C@H]1O[C@@H](c2ccc(F)c(Cc3cc4ccccc4s3)c2)[C@H](O)[C@@H](O)[C@@H]1O has an inhibition of -5%.
The inhibition of COc1cc2c(cc1OC)[C@H]1Cc3ccc(OC)c(OC)c3CN1CC2 is reported as -8%.
For O=S(=O)(O)Oc1ccc(C(c2ccc(OS(=O)(=O)O)cc2)c2ccccn2)cc1, the inhibition was -2%.
The inhibition of NC(=O)/C=C/c1ccccc1 is reported as 4%.
The inhibition of C[C@@H](O)[C@H]1C(=O)N2C(C(=O)O)=C(S[C@@H]3CN[C@H](CNS(N)(=O)=O)C3)[C@H](C)[C@H]12 is reported as 3%.
COc1cccc(OC)c1C(=O)O has an inhibition of -57%.
For COc1ccc(-c2oc3c(OC)c(OC)c(OC)c(OC)c3c(=O)c2OC)cc1OC, the inhibition was -1%.
With O=c1cc(-c2ccc(O)cc2)oc2c([C@@H]3O[C@H](CO)[C@@H](O)[C@H](O)[C@H]3O)c(O)cc(O)c12 the inhibition was 0%.

Set 2
Structure (SMILES): CCCOc1ccc([C@H]2[C@H](C(=O)O)[C@@H](c3ccc4c(c3)OCO4)CN2CC(=O)Nc2c(CC)cccc2CC)cc1
Concentration: 1 µM
ALK (Homo sapiens, UniProt Q9UM73, C1156Y); cell-free assay, competition with immobilised ligand — remaining binding: 98%.
It gave 100% for remaining binding (EGFR (Homo sapiens, UniProt P00533, L858R); cell-free assay, competition with immobilised ligand).
KIT (Homo sapiens, UniProt P10721, A829P); cell-free assay, competition with immobilised ligand — remaining binding: 63%.
For SIK1 (Homo sapiens, UniProt P57059); competition binding: remaining binding read 100%.
MATK (Homo sapiens, UniProt P42679); cell-free assay, competition with immobilised ligand — remaining binding: 83%.
It gave 100% for remaining binding (EPHA6 (Homo sapiens, UniProt Q9UF33); cell-free assay, competition with immobilised ligand).
CDKL3 (Homo sapiens, UniProt Q8IVW4); cell-free assay, competition with immobilised ligand — remaining binding: 92%.
The remaining binding was 89% (Ribosomal protein S6 kinase alpha-5, C-terminal kinase domain (RPS6KA5, Homo sapiens, UniProt O75582); cell-free assay, competition with immobilised ligand).
NEK6 (Homo sapiens, UniProt Q9HC98); cell-free assay, competition with immobilised ligand — remaining binding: 96%.
The remaining binding was 93% (Aurora kinase A (AURKA, Homo sapiens, UniProt O14965); cell-free assay, competition with immobilised ligand).
It gave 93% for remaining binding (PRKD3 (Homo sapiens, UniProt O94806); cell-free assay, competition with immobilised ligand).
For WNK2 (Homo sapiens, UniProt Q9Y3S1); cell-free assay, competition with immobilised ligand: remaining binding read 58%.
PAK2 (Homo sapiens, UniProt Q13177); cell-free assay, competition with immobilised ligand — remaining binding: 94%.
RET (Homo sapiens, UniProt P07949, M918T); cell-free assay, competition with immobilised ligand — remaining binding: 84%.
For EIF2AK2 (Homo sapiens, UniProt P19525); cell-free assay, competition with immobilised ligand: remaining binding read 100%.
It gave 95% for remaining binding (CDK19 (Homo sapiens, UniProt Q9BWU1); competition binding).
For CILK1 (Homo sapiens, UniProt Q9UPZ9); binding, competition with immobilised ligand: remaining binding read 59%.
MTOR (Homo sapiens, UniProt P42345); cell-free assay, competition with immobilised ligand — remaining binding: 77%.
The remaining binding was 81% (DMPK (Homo sapiens, UniProt Q09013); cell-free assay, competition with immobilised ligand).
FLT3 (Homo sapiens, UniProt P36888, D835Y); cell-free assay, competition with immobilised ligand — remaining binding: 100%.
CDK2 (Homo sapiens, UniProt P24941); cell-free assay, competition with immobilised ligand — remaining binding: 87%.
PRPF4B (Homo sapiens, UniProt Q13523); cell-free assay, competition with immobilised ligand — remaining binding: 82%.

Set 3
Cell line: mouse MPNST tumor cells
Method: high-content immunofluorescence imaging
Refers to: nuclear SOX9
Concentration: 10 µM
Time: 12 h
Notes: mean of 2 replicates
Baseline: DMSO control
Reading: higher = more nuclear SOX9
CC1CCN(C(c2ccc(F)cc2)c2ccc(C(C)C(=O)O)cc2-c2ccc(C(F)(F)F)cc2)CC1 (stereo not drawn): “nuclear SOX9 intensity” 110 % of DMSO.
COC(=O)C(NC(=O)c1cc(-c2ccccc2)nc2ccccc12)c1ccccc1 (stereo not drawn) — result for “nuclear SOX9 intensity”: 99.5 % of DMSO.
For CC1(C)[C@@H](OC(=O)CCC(=O)O)CC[C@]2(C)[C@H]3C(=O)C=C4[C@@H]5C[C@@](C)(C(=O)O)CC[C@]5(C)CC[C@@]4(C)[C@]3(C)CC[C@@H]12, “nuclear SOX9 intensity” read 102 % of DMSO.
Under “nuclear SOX9 intensity”, CC[N+](CC)(CC)CCC(O)(c1ccccc1)C1CCCCC1 (stereo not drawn) is recorded as 87.7 % of DMSO.
Under “nuclear SOX9 intensity”, CC[C@H](C)C(=O)O[C@H]1C[C@H](O)C=C2C=C[C@H](C)[C@H](CC[C@@H](O)C[C@@H](O)CC(=O)O)[C@H]21 is recorded as 97 % of DMSO and 91.8 % of DMSO.
CC(C)NCC(O)COc1ccc(CCOCC2CC2)cc1 (stereo not drawn): “nuclear SOX9 intensity” 120 % of DMSO.
COc1ccc(CN2CCN(C(c3ccc(F)cc3)c3ccc(F)cc3)CC2)c(OC)c1OC — result for “nuclear SOX9 intensity”: 207 % of DMSO.
CC(=O)[C@@]1(O)CC[C@H]2[C@@H]3C[C@H](C)C4=CC(=O)C=C[C@]4(C)[C@@]3(F)[C@@H](O)C[C@@]21C — result for “nuclear SOX9 intensity”: 67.3 % of DMSO.
CCOC(=O)c1ncn2c1CN(C)C(=O)c1cc(F)ccc1-2: “nuclear SOX9 intensity” 107 % of DMSO and 98.4 % of DMSO.
For N=C(NC(=O)c1nc(Cl)c(N)nc1N)Nc1ccccc1, “nuclear SOX9 intensity” read 118 % of DMSO.
Under “nuclear SOX9 intensity”, CCOc1ccccc1OCC1CNCCO1 (stereo not drawn) is recorded as 101 % of DMSO.
COc1cc(-c2ccc(=O)[nH]n2)ccc1OC(F)F: “nuclear SOX9 intensity” 110 % of DMSO and 106 % of DMSO.
O=C(O)c1ccc(-c2c[nH]c3ncc(-c4ccccc4)cc23)cc1C1CCCC1: “nuclear SOX9 intensity” 99.1 % of DMSO.
For COc1cccc([C@@H](C)NCCCc2ccccc2Cl)c1, “nuclear SOX9 intensity” read 174 % of DMSO.
O=C(Oc1cccc(F)c1OC(=O)c1cccc(O)c1)c1cccc(O)c1: “nuclear SOX9 intensity” 109 % of DMSO.

Set 4
Target: Serine/threonine-protein kinase 3 (STK3, Homo sapiens, UniProt Q13188)
Observed: enzyme activity
Action: inhibitor
Concentration: 0.5 µM
Baseline: control
Target sequence (Q13188 1-491): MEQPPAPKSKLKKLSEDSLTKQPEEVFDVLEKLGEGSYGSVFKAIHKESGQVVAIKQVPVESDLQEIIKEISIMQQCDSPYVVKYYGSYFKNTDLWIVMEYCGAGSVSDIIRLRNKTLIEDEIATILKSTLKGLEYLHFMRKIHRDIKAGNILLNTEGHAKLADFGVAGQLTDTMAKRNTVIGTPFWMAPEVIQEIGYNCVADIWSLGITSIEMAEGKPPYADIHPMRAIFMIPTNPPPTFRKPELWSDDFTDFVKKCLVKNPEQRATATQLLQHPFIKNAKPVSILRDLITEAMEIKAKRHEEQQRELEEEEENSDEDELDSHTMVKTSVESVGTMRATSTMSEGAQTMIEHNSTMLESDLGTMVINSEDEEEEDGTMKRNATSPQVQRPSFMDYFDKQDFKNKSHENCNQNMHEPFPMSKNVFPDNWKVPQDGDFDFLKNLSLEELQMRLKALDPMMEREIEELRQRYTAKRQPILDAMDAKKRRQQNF
The remaining activity of CCCCc1c(-c2ccc(O)cc2)[nH]c2nccnc12 is reported as 76.6%.
For O=C1NC(=O)/C(=C/c2ccc3c(c2)OC(F)(F)O3)S1, the remaining activity was 100%.
With Nc1nc(Nc2ccc(S(N)(=O)=O)cc2)nn1C(=S)Nc1c(F)cccc1F the remaining activity was 1.33%.
With c1cc(-c2cnn3cc(-c4ccc(OCCN5CCCCC5)cc4)cnc23)ccn1 the remaining activity was 93.9%.
For CC(C)(C)c1nc2c3cc[nH]c(=O)c3c3cc(F)ccc3c2[nH]1, the remaining activity was 5.45%.
O=Nc1c(-c2c(O)[nH]c3ccccc23)[nH]c2ccccc12 has a remaining activity of 19.9%.
N#CC(c1ccnc(NCCc2cccnc2)n1)c1nc2ccccc2s1 (stereo not drawn) has a remaining activity of 98.9%.
O=C(c1ccccc1)c1ccc(N2CCOCC2)cc1O gave a remaining activity of 100%.
The remaining activity of Clc1ccc(Nc2nnc(Cc3ccncc3)c3ccccc23)cc1 is reported as 92.1%.
FC(F)(F)c1ccc(/C=C/c2nc(COc3ccc(CCCCn4ccnn4)cc3)co2)cc1 has a remaining activity of 95.5%.
The remaining activity of NC(=O)c1cccc(-c2cc(Nc3ccc(OC(F)(F)F)cc3)ncn2)c1 is reported as 93.6%.
COc1cc2c(Nc3ccc(Br)cc3F)ncnc2cc1OCC1CCN(C)CC1 gave a remaining activity of 97.5%.
O=c1c(-c2ccc(F)cc2)c(-c2ccncc2)[nH]n1-c1ccc(Cl)cc1 has a remaining activity of 88.3%.
For CC(C)N(CCC(=O)c1ccc2ccccc2c1)Cc1ccccc1, the remaining activity was 102%.
With CNc1cc2c(Nc3cccc(Br)c3)ncnc2cn1 the remaining activity was 99.9%.
With CC(C)n1cnc2c(Nc3cccc(Cl)c3)nc(NCCO)nc21 the remaining activity was 94.6%.
With O=C(O)/C=C/c1cc(Br)c(Br)c(Br)c1Br the remaining activity was 91.4%.
With NC(=O)c1ccc(-c2nc(-c3ccc4c(c3)OCCO4)c(-c3ccccn3)[nH]2)cc1 the remaining activity was 90.6%.
For C[C@@H](N)[C@H]1CC[C@H](C(=O)Nc2ccncc2)CC1, the remaining activity was 75.7%.
N#C/C(=C(/N)SC1C=CC=CC1)c1cccc(C(O)c2ccncc2)c1 (stereo not drawn) has a remaining activity of 97.6%.
CCN(CC)CCCCN1c2ccccc2Oc2ccc(Cl)cc21 gave a remaining activity of 106%.

For quick reference, copied from above (set 3):
Under “nuclear SOX9 intensity”, CC[C@H](C)C(=O)O[C@H]1C[C@H](O)C=C2C=C[C@H](C)[C@H](CC[C@@H](O)C[C@@H](O)CC(=O)O)[C@H]21 is recorded as 97 % of DMSO and 91.8 % of DMSO.
COC(=O)C(NC(=O)c1cc(-c2ccccc2)nc2ccccc12)c1ccccc1 (stereo not drawn) — result for “nuclear SOX9 intensity”: 99.5 % of DMSO.
CC1CCN(C(c2ccc(F)cc2)c2ccc(C(C)C(=O)O)cc2-c2ccc(C(F)(F)F)cc2)CC1 (stereo not drawn): “nuclear SOX9 intensity” 110 % of DMSO.
COc1ccc(CN2CCN(C(c3ccc(F)cc3)c3ccc(F)cc3)CC2)c(OC)c1OC — result for “nuclear SOX9 intensity”: 207 % of DMSO.
Under “nuclear SOX9 intensity”, CC[N+](CC)(CC)CCC(O)(c1ccccc1)C1CCCCC1 (stereo not drawn) is recorded as 87.7 % of DMSO.
COc1cc(-c2ccc(=O)[nH]n2)ccc1OC(F)F: “nuclear SOX9 intensity” 110 % of DMSO and 106 % of DMSO.
For CC1(C)[C@@H](OC(=O)CCC(=O)O)CC[C@]2(C)[C@H]3C(=O)C=C4[C@@H]5C[C@@](C)(C(=O)O)CC[C@]5(C)CC[C@@]4(C)[C@]3(C)CC[C@@H]12, “nuclear SOX9 intensity” read 102 % of DMSO.
O=C(O)c1ccc(-c2c[nH]c3ncc(-c4ccccc4)cc23)cc1C1CCCC1: “nuclear SOX9 intensity” 99.1 % of DMSO.
